Assay results from different studies.
Parts stem from different laboratories: compare values within a part only.

Block 1
Target: Protein C-ets-1, full length (ETS1, Homo sapiens, UniProt P14921, residues 1-441)
Method: protein-binding microarray
Form: hairpin DNA
Medium: in vitro
Concentration: not given
Setting: whole hairpin DNA, median over replicate spots
Baseline: not given
Reading: higher = stronger binding
Endpoint: median fluorescence
Constant ends, left off below: GAGGCCAG … CTGGCCTCACACTC
Target sequence (chain): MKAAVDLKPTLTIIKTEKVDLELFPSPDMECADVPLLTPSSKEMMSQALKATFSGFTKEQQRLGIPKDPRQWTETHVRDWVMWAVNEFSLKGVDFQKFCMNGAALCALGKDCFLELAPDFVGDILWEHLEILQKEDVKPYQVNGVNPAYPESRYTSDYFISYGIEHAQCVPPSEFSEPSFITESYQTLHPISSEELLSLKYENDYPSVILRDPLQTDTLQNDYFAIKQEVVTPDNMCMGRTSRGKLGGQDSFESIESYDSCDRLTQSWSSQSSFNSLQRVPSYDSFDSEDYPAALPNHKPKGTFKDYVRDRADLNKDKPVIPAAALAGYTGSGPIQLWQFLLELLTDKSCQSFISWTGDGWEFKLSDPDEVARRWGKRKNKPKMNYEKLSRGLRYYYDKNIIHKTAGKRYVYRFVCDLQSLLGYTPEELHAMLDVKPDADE
CCGGAAGTTGCCTCCTGGCAACTTCCGG (5mC at 30): 10500 a.u.
TCCGAAGTTGCCTCCTGGCAACTTCGGA (5mC at 11): 549 a.u.
TCGGAAGTAGCCTCCTGGCTACTTCCGA: 2900 a.u.
TCGGACGTTGCCTCCTGGCAACGTCCGA (5mC at 14): 717 a.u.
TCGGTAGTTGCCTCCTGGCAACTACCGA: 558 a.u.

Block 2
Target: Sal-like protein 4, full length isoform A (SALL4, Homo sapiens, UniProt Q9UJQ4, residues 1-1053)
UniProt Q9UJQ4, sequence (whole entry, looked up): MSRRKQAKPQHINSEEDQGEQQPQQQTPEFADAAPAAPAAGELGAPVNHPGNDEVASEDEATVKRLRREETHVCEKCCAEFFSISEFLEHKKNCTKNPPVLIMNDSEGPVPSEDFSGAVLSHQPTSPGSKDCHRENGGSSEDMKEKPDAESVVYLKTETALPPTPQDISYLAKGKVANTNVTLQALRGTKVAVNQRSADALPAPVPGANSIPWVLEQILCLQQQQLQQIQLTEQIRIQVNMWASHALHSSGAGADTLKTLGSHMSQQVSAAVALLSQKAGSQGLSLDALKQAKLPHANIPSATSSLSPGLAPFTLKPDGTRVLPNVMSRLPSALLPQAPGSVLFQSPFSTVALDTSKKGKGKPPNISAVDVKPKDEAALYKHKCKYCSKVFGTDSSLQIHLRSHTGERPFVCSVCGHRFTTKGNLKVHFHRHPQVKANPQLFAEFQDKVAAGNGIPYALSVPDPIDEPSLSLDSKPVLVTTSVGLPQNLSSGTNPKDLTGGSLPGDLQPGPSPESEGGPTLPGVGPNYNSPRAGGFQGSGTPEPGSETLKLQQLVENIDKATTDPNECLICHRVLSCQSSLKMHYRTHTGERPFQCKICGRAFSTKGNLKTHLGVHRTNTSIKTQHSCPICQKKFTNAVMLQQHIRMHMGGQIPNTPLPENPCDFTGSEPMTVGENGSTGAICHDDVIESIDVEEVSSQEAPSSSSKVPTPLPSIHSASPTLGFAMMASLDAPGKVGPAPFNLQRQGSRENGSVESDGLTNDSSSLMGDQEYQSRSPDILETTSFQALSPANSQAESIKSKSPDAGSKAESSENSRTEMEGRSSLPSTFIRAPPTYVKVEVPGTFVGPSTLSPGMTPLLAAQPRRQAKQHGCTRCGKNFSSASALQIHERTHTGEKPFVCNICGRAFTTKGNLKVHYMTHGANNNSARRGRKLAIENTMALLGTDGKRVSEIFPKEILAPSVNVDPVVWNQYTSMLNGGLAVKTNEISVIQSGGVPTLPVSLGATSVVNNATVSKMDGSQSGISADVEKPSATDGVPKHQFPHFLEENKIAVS
Method: universal PBM
Form: double-stranded DNA, one strand shown
Medium: in vitro
Concentration: 600 nM
Setting: 8-mer, flanks averaged, mean of replicates
Reading: higher = stronger binding
Endpoint: E-score
ACGAAGAG: 0.101
CTGGGTTC: -0.226
TGACACCA: -0.113
CAAGCCTA: -0.0209
AGGACAAA: 0.163
CATTTCCG: 0.144
CCCCTATC: -0.183
TAGGTGCA: -0.113
AATTCAGG: 0.0968
CGGGTTGC: -0.213

Block 3
Target: Ras GTPase-activating protein-binding protein 1, full length (G3BP1, Homo sapiens, UniProt Q13283)
UniProt Q13283, sequence (whole entry, looked up): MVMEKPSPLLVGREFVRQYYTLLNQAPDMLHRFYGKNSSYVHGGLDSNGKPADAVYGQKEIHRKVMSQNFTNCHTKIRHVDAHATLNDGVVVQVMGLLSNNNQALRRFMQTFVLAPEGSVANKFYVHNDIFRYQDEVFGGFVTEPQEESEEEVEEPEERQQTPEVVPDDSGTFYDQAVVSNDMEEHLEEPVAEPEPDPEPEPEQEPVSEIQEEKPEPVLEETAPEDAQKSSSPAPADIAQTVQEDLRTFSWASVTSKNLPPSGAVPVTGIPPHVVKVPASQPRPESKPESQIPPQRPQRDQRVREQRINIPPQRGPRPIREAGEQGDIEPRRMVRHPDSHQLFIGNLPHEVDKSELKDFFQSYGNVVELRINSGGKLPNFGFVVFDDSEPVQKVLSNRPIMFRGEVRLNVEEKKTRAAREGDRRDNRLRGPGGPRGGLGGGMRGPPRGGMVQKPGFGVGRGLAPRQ
Method: RNA Bind-n-Seq
Form: RNA
Medium: in vitro
Concentration: 200 nM
Setting: whole 134-nt RNA, ends assumed
With: 150 mM KCl
Baseline: input library
Reading: higher = stronger binding
Endpoint: log2 enrichment
Constant ends, left off below: GGGAGUUCUACAGUCCGACGAUC … UGGAAUUCUCGGGUGUCAAGG
GUCCUGUGCUACACAUCGUAUGUACCGAAUCAAAUUUUUUUAAACCCCCAAAUUUAAAAAAGUAUUAUGUUACGCCGUUCGGAUCUGCAC: -0.315
ACCAUGCAGGUGGGCAUCUUUGGGAAGUGGGGCAAGGGGGGGAUAGGGAGGGGGGUAACACUUUAGGAACAGGUGGUCCCAGGUCGUUUC: 1.24
AGUCCUGUGCUACACAUCGUAUGUACCGAAUCGGCCCCCGGGCCCCCGGGCCCCCGGAAAGUAUUAUGUUACGCCGUUCGGAUCUGCACU: -1.17
AAGUCCUGUGCUACACAUCGUAUGUACCGAAUCGGAAAAGGGGAAAAGGAAAAGGGAAAGUAUUAUGUUACGCCGUUCGGAUCUGCACUU: -0.938
UGGGAGGUGGAUUUUGUUUAUUUUUUUAGCUCAUUUCCAGGGGUGGGCAUUUUUUUUUAAUAUGUGUCAUGAAUAAAGUUGUUUUUGAAA: 0.287
CACAGACAACACGCACCCACACAGACACAGAGGGAAGGGGUUGGGAUGGGGACAGGGUGCACAGCAGGGCGGGGUAGGACCCCAGACCCU: 1.85
UCCUGUGCUACACAUCGUAUGUACCGAAUCGGGAAAAAAAGGGUUUGGGUUUUUUUGGGAAAGUAUUAUGUUACGCCGUUCGGAUCUGCA: -0.324
CUUAUGCCUUCCCCACUGGUAUUGAGGGUUUUGAUAAUAAAUUGGUAGGAAAAAAAAGUACCUCCUAGAAGGAAGCCUUCCCCACCAUUU: 0.0856
CCUCAAGUCCUGUGCUACACAUCGUAUGUACCGAAUCGGGGUGGGGUGGUGGGAAAGUAUUAUGUUACGCCGUUCGGAUCUGCACUUCCA: 0.991

Block 4
Target: RNA binding protein fox-1 homolog 2, RRM domain, GST-SBP tag (RBFOX2, Homo sapiens, UniProt O43251-10, residues 100-194)
Method: RNA Bind-n-Seq
Form: RNA
Medium: in vitro
Concentration: 365 nM
Setting: natural RNA segment, single round, ends assumed
Baseline: no-protein control
Reading: higher = stronger binding
Endpoint: RBNS enrichment (R)
Constant ends, left off below: GGGAGUUCUACAGUCCGACGAUC … UGGAAUUCUCGGGUGCCAA
AACCACUUUGAGCAAGGCUGCCUUCUUGUAGAUGACUUGCUGUUCUUUAUGACAGGGAUCAGUGGCAUUUGUUUCCUAGCAGUAUUUAGCACCUUUUUGCCACCUUGGUG: 0.39
UAUUACAGAAUAUUUUCAUGCAAUCAUGUGCACAUUAUUGGUAGCAAACAUAGUAUAUCCUUUAGUACUUUAACAUAUUUUUGUUAAAAUACUUUUAAUGGUAAGAAAUG: 0.659
UUAAGAACAGUCACUCUUGAUUGUUUUACUUUUUAUUUUUAAAUUAAAGAUUGGGAAUGCGUGUGAGAGUAUGCAUAAGCAUGGCAGGAAGAGAGGGGGGAGAGAGAAAG: 2.22
UCUCAGGUCAGUAGGCGCAGAAACGCCUCAUGAUGAAGAUUCUUGAGCCCCAUUUCCAAGACCCCUCACAUCCAAUCCUGUCCUGUAACAUCCAUCAAGGAUUUCCAUAG: 0.372
UUGUUUUGUCUCCUAAAUUGUUGUAAUUGCAUUAUAAAAUAAGAAAAAUAUUAAUAAGACAAAUAUUGAAAAUAAAGAAACAAAAAGUUCUUCUGUUGAUUGAGUUUUAU: 1.08
AUCAGGCUUCUGCAAAAGCUCUUCUUCCUGAAGACAGACCCAGCCUUUGUGCUCUCACCCUCCACUCUGGUAAAGCUGCACCUCUGGGGGAAUGAGGGGCUGCAGGAAUC: 0.467
UAUUACCAGGCUUUCCUUCUCACCCCUUUUUUCUGACUUUGCCAAGUAAUUUGUUGACACGAAAAUUUUGGAGGAACCAAUUGAAAACACACUUCCAGUCUAGAUGAUGC: 0.706

Excerpt of the above (block 4):
UAUUACCAGGCUUUCCUUCUCACCCCUUUUUUCUGACUUUGCCAAGUAAUUUGUUGACACGAAAAUUUUGGAGGAACCAAUUGAAAACACACUUCCAGUCUAGAUGAUGC: 0.706
AACCACUUUGAGCAAGGCUGCCUUCUUGUAGAUGACUUGCUGUUCUUUAUGACAGGGAUCAGUGGCAUUUGUUUCCUAGCAGUAUUUAGCACCUUUUUGCCACCUUGGUG: 0.39
UUGUUUUGUCUCCUAAAUUGUUGUAAUUGCAUUAUAAAAUAAGAAAAAUAUUAAUAAGACAAAUAUUGAAAAUAAAGAAACAAAAAGUUCUUCUGUUGAUUGAGUUUUAU: 1.08
